Experimental data from different studies.
A part holds a random share of what one study measured. Values joined by “and” are separate records of one study, mostly repeats; a detail may differ. Changes are numbered by the printed parent chain.
Chain of UniProt O75747 (whole entry, looked up): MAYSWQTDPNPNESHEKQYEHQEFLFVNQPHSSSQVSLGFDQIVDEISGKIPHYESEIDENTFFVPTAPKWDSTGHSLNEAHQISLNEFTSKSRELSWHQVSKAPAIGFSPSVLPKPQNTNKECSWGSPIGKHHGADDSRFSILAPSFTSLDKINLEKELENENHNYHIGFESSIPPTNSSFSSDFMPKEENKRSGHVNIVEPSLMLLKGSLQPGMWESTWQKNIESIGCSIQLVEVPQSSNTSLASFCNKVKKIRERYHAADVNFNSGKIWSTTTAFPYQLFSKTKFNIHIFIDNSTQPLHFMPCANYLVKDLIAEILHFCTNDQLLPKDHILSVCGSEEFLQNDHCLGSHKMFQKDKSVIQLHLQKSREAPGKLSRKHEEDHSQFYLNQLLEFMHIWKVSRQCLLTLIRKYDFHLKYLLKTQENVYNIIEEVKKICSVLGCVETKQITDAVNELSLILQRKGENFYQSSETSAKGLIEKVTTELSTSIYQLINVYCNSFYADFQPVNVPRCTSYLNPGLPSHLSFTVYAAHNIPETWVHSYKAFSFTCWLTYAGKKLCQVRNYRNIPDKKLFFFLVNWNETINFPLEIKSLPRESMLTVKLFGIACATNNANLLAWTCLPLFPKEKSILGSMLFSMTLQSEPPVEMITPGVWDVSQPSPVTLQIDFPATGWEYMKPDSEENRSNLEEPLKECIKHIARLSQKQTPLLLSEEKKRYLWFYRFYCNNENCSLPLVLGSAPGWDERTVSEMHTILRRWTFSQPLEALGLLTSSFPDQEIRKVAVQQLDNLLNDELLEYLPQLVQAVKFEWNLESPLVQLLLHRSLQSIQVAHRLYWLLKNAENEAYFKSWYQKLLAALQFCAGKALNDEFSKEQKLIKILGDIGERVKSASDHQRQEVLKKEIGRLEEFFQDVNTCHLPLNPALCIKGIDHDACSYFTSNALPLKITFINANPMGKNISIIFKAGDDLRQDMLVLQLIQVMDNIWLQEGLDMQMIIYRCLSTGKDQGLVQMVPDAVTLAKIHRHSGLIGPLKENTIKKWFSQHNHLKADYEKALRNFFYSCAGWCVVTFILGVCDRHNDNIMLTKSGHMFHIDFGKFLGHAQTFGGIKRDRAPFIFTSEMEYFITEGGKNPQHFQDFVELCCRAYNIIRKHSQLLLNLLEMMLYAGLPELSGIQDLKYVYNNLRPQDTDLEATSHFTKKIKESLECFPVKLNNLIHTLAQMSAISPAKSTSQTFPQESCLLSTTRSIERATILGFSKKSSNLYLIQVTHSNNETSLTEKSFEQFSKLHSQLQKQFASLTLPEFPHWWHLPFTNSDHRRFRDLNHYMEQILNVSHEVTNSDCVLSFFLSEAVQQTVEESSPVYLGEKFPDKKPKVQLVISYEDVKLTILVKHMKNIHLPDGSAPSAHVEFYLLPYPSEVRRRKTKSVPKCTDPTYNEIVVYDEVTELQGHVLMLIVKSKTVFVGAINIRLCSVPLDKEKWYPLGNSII
Chain of UniProt O14920 (whole entry, looked up): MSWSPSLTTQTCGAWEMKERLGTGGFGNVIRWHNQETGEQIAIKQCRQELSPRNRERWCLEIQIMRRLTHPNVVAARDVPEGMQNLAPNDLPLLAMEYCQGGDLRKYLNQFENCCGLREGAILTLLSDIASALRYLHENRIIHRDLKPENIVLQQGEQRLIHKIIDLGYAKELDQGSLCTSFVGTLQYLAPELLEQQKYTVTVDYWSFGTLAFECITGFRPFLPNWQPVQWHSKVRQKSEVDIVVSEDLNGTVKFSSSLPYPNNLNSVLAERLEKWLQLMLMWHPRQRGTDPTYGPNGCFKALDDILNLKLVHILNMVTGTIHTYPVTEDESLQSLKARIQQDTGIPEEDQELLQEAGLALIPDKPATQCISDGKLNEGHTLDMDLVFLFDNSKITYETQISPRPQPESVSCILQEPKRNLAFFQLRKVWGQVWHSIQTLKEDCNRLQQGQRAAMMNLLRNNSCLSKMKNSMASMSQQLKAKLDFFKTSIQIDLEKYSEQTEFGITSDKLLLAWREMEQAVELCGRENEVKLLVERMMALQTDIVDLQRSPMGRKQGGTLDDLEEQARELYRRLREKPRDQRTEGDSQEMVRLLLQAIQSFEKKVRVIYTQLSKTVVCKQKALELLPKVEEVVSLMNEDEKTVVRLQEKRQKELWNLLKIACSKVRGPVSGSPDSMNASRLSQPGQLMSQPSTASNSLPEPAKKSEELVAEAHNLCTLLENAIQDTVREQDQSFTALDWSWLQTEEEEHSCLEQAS
Chain of UniProt Q8IWQ3 (whole entry, looked up): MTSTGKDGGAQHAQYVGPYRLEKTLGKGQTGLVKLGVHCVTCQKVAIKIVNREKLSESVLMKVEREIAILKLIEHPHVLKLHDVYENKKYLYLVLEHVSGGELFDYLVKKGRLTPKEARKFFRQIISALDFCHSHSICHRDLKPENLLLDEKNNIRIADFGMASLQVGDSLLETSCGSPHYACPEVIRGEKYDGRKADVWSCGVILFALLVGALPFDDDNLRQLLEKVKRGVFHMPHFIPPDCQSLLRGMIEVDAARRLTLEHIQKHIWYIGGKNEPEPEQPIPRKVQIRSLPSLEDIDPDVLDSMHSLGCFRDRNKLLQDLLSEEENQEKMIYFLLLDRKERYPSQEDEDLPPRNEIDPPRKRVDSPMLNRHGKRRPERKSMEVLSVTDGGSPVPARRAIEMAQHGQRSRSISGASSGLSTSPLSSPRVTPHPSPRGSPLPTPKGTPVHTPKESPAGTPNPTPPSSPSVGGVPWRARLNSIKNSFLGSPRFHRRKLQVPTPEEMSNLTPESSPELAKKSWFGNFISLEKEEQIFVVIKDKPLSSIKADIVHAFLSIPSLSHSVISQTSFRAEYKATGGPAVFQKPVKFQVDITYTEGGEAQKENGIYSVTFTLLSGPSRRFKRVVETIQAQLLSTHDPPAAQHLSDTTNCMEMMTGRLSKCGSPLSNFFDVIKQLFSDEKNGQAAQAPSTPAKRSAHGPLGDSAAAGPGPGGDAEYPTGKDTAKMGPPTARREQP
Chain of UniProt P00519 (whole entry, unmodified, looked up): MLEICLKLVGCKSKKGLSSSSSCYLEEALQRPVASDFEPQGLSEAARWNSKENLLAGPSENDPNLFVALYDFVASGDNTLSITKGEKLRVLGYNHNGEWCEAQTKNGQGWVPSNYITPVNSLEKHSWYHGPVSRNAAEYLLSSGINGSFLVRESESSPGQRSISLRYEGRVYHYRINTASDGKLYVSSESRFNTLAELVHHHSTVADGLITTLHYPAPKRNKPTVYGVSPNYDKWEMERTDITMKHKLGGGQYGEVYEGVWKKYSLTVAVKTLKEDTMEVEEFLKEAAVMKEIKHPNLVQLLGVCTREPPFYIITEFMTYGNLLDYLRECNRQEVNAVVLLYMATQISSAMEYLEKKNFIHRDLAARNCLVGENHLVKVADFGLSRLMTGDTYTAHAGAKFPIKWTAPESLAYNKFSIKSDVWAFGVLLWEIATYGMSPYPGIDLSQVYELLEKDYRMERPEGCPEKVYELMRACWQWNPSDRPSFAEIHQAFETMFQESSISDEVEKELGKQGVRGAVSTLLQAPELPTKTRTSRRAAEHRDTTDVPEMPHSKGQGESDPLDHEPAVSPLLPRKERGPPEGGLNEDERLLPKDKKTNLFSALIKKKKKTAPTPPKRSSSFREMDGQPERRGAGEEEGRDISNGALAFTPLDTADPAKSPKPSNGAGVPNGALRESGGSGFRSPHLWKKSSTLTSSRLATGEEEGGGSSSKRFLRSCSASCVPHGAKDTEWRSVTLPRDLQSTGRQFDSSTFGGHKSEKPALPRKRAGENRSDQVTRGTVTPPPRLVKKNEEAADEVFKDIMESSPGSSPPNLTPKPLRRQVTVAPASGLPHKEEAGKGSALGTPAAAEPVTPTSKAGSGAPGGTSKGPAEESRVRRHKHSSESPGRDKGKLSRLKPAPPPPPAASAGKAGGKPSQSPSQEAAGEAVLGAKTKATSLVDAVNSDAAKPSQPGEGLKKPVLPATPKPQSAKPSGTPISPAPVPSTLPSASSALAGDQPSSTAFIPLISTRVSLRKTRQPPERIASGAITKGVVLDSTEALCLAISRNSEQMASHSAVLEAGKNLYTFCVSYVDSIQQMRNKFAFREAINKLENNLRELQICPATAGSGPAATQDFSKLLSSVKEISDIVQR
Chain of UniProt Q8TBX8 (whole entry, looked up): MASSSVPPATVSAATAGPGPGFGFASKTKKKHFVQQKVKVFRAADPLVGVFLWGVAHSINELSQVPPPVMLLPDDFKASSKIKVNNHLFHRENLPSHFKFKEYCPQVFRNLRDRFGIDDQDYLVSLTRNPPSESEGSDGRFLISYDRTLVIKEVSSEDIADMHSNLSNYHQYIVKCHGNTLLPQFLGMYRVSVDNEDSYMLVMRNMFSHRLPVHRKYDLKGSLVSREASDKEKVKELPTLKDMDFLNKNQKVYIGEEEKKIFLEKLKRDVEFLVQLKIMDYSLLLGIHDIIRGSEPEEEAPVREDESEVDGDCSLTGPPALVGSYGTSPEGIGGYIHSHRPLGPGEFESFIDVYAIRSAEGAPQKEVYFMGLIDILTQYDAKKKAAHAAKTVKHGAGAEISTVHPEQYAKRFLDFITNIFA
Chain of UniProt P36897 (whole entry, looked up): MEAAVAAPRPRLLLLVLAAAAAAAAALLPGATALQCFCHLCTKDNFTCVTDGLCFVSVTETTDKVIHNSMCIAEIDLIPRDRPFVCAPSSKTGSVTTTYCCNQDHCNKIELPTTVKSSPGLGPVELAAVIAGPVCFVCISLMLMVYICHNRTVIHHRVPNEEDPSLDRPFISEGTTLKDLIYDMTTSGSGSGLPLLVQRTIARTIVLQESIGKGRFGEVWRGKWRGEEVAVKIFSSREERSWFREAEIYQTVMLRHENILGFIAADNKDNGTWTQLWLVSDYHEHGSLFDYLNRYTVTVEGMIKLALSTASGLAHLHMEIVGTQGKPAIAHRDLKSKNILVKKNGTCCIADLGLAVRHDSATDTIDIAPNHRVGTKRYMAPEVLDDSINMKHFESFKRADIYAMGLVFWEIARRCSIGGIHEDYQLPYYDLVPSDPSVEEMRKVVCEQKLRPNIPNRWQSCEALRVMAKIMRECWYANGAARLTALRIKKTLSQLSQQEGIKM

Block 1 — host: human; medium: microsomes or S9; tested at: 2 µM; time: 0.5 h
SMILES | remaining compound [%]
CC[C@@H](C)[C@H](NS(=O)(=O)c1ccccc1)C(=O)O | 67.5
Cc1onc(-c2ccccc2)c1C(=O)Nc1ccon1 | 74.9
CC(C)C1CC(n2cc(C(=O)O)nn2)c2cc(Cl)ccc2O1 (stereo not drawn) | > 99.9

Block 2 — technique: two-hybrid; relative to: out of 4 tests; direction: higher = firmer interaction
Partner: ARF22 498-598 (Arabidopsis thaliana, UniProt Q9C8N7)
B1: IAA16 (Arabidopsis thaliana, UniProt O24407); chain MINFEATELRLGLPGGNHGGEMAGKNNGKRGFSETVDLKLNLSSTAMDSVSKVDLENMKEKVVKPPAKAQVVGWPPVRSFRKNVMSGQKPTTGDATEGNDKTSGSSGATSSASACATVAYVKVSMDGAPYLRKIDLKLYKTYQDLSNALSKMFSSFTIGNYGPQGMKDFMNESKLIDLLNGSDYVPTYEDKDGDWMLVGDVPWEMFVDSCKRIRIMKGSEAIGLAPRALEKCKNRS
B2: ARF1 538-665 (Arabidopsis thaliana, UniProt Q8L7G0); chain SRQIRSCTKVHMQGSAVGRAIDLTRSECYEDLFKKLEEMFDIKGELLESTKKWQVVYTDDEDDMMMVGDDPWNEFCGMVRKIFIYTPEEVKKLSPKNKLAVNARMQLKADAEENGNTEGRSSSMAGSR
B3: IAA13 (Arabidopsis thaliana, UniProt Q38831); chain MITELEMGKGESELELGLGLSLGGGTAAKIGKSGGGGAWGERGRLLTAKDFPSVGSKRAADSASHAGSSPPRSSSQVVGWPPIGSHRMNSLVNNQATKSAREEEEAGKKKVKDDEPKDVTKKVNGKVQVGFIKVNMDGVAIGRKVDLNAHSSYENLAQTLEDMFFRTNPGTVGLTSQFTKPLRLLDGSSEFVLTYEDKEGDWMLVGDVPWRMFINSVKRLRVMKTSEANGLAARNQEPNERQRKQPV
B4: IAA18 (Arabidopsis thaliana, UniProt O24408); chain MEGYSRNGEISPKLLDLMIPQERRNWFHDEKNSVFKTEEKKLELKLGPPGEEDDDESMIRHMKKEPKDKSILSLAGKYFSPSSTKTTSHKRTAPGPVVGWPPVRSFRKNLASGSSSKLGNDSTTSNGVTLKNQKCDAAAKTTEPKRQGGMFVKINMYGVPIGRKVDLSAHNSYEQLSFTVDKLFRGLLAAQRDFPSSIEDEKPITGLLDGNGEYTLTYEDNEGDKMLVGDVPWQMFVSSVKRLRVIKTSEISSALTYGNGKQEKMRR
Target sequence (chain): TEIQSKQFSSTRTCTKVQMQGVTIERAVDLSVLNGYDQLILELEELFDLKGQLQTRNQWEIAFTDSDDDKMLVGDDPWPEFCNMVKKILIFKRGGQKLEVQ
Molecule | positive tests
B1 (IAA16) | 3
B2 (ARF1 538-665) | 0
B3 (IAA13) | 1
B4 (IAA18) | 2

Block 3 — target: CRIPT, C-terminal peptide; technique: DHFR complementation, deep sequencing; medium: yeast; relative to: wild type; direction: higher = weaker binding
Notes: single substitutions, model-inferred values
Starting sequence: ERBIN, PDZ domain 1 (human); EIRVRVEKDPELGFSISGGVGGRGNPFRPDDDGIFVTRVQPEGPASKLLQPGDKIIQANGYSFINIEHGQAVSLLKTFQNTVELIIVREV; partner TKNYKQTSV
Variant | binding free energy change
D31G | 1.13 kcal/mol
Q70P | 0.347 kcal/mol
S17T | 0.295 kcal/mol
F14M | -0.652 kcal/mol
D9N | -0.241 kcal/mol
K47G | -0.0339 kcal/mol
T81G | 0.104 kcal/mol
V72S | 0.779 kcal/mol

Block 4 — tested at: 1 µM
Structure (SMILES): COc1cc(-c2cn(C3CCc4c(F)cccc4N(CC(F)(F)F)C3=O)nn2)ccc1-n1cnc(C)c1 (stereo not drawn)
target | assay | remaining binding
PIP4K2C (Homo sapiens, UniProt Q8TBX8) | cell-free assay, competition with immobilised ligand | 100%
IKBKB (Homo sapiens, UniProt O14920) | cell-free assay, competition with immobilised ligand | 100%
CHEK2 (Homo sapiens, UniProt O96017) | cell-free assay, competition with immobilised ligand | 100%
Insulin receptor (INSR, Homo sapiens, UniProt P06213) | cell-free assay, competition with immobilised ligand | 90%
BRSK2 (Homo sapiens, UniProt Q8IWQ3) | cell-free assay, competition with immobilised ligand | 100%
PIP5K1C (Homo sapiens, UniProt O60331) | cell-free assay, competition with immobilised ligand | 90%
EGFR (Homo sapiens, UniProt P00533) | binding, competition with immobilised ligand | 0%
WNK1 (Homo sapiens, UniProt Q9H4A3) | cell-free assay, competition with immobilised ligand | 100%
CDC42BPG (Homo sapiens, UniProt Q6DT37) | competition binding | 100%
PLK4 (Homo sapiens, UniProt O00444) | cell-free assay, competition with immobilised ligand | 100%
DYRK2 (Homo sapiens, UniProt Q92630) | cell-free assay, competition with immobilised ligand | 100%
NTRK3 (Homo sapiens, UniProt Q16288) | cell-free assay, competition with immobilised ligand | 95%
FLT3 (Homo sapiens, UniProt P36888, F691L/ITD) | cell-free assay, competition with immobilised ligand | 82%
CDKL3 (Homo sapiens, UniProt Q8IVW4) | cell-free assay, competition with immobilised ligand | 100%
PIK3C2G (Homo sapiens, UniProt O75747) | cell-free assay, competition with immobilised ligand | 72%
TGFBR1 (Homo sapiens, UniProt P36897) | cell-free assay, competition with immobilised ligand | 100%
Tyrosine-protein kinase ABL1, non-phosphorylated (ABL1, Homo sapiens, UniProt P00519, F317I) | binding, competition with immobilised ligand | 79%
CDKL2 (Homo sapiens, UniProt Q92772) | cell-free assay, competition with immobilised ligand | 67%

Block 5 — technique: RNA Bind-n-Seq; molecule type: RNA; medium: in vitro; tested at: 20 nM; notes: 6-mer, flanks averaged, single round; with: 150 mM LiCl; relative to: input library; direction: higher = stronger binding
Target: TAR DNA-binding protein 43, full length, His tag (TARDBP, Homo sapiens, UniProt Q13148, residues 1-414)
Sequence | 6-mer enrichment (R)
CAAAGG | 0.865
GUAUUU | 1.15
GACCCU | 0.969
GGUGGC | 1.23
UCUAAA | 0.843
GCAAGC | 0.891
AAGAUG | 0.916
UUCUUA | 0.994

Further values, each from its own experiment
Compound | cell line | assay | conditions | quantity | value
c1ccc(Oc2ccc(Nc3c4c(nc5ccccc35)CCC4)cc2)cc1 | HepG2 | resazurin | 3.32 µM, 48 h | cytotoxicity | 3% and 2%

For quick reference, copied from above (block 2):
Molecule | positive tests
B2 (ARF1 538-665) | 0
B3 (IAA13) | 1
B4 (IAA18) | 2
